Measured values from different studies.
Compare with care: the assays were run in different laboratories. “And” joins repeats or separate records; there may be more than shown. Numbers after ± are the reported error.
B1: DDX21; sequence looked up; chain MPGKLRSDAGLESDTAMKKGETLRKQTEEKEKKEKPKSDKTEEIAEEEETVFPKAKQVKKKAEPSEVDMNSPKSKKAKKKEEPSQNDISPKTKSLRKKKEPIEKKVVSSKTKKVTKNEEPSEEEIDAPKPKKMKKEKEMNGETREKSPKLKNGFPHPEPDCNPSEAASEESNSEIEQEIPVEQKEGAFSNFPISEETIKLLKGRGVTFLFPIQAKTFHHVYSGKDLIAQARTGTGKTFSFAIPLIEKLHGELQDRKRGRAPQVLVLAPTRELANQVSKDFSDITKKLSVACFYGGTPYGGQFERMRNGIDILVGTPGRIKDHIQNGKLDLTKLKHVVLDEVDQMLDMGFADQVEEILSVAYKKDSEDNPQTLLFSATCPHWVFNVAKKYMKSTYEQVDLIGKKTQKTAITVEHLAIKCHWTQRAAVIGDVIRVYSGHQGRTIIFCETKKEAQELSQNSAIKQDAQSLHGDIPQKQREITLKGFRNGSFGVLVATNVAARGLDIPEVDLVIQSSPPKDVESYIHRSGRTGRAGRTGVCICFYQHKEEYQLVQVEQKAGIKFKRIGVPSATEIIKASSKDAIRLLDSVPPTAISHFKQSAEKLIEEKGAVEALAAALAHISGATSVDQRSLINSNVGFVTMILQCSIEMPNISYAWKELKEQLGEEIDSKVKGMVFLKGKLGVCFDVPTASVTEIQEKWHDSRRWQLSVATEQPELEGPREGYGGFRGQREGSRGFRGQRDGNRRFRGQREGSRGPRGQRSGGGNKSNRSQNKGQKRSFSKAFGQ
B2: anillin; sequence looked up; chain MDPFTEKLLERTRARRENLQRKMAERPTAAPRSMTHAKRARQPLSEASNQQPLSGGEEKSCTKPSPSKKRCSDNTEVEVSNLENKQPVESTSAKSCSPSPVSPQVQPQAADTISDSVAVPASLLGMRRGLNSRLEATAASSVKTRMQKLAEQRRRWDNDDMTDDIPESSLFSPMPSEEKAASPPRPLLSNASATPVGRRGRLANLAATICSWEDDVNHSFAKQNSVQEQPGTACLSKFSSASGASARINSSSVKQEATFCSQRDGDASLNKALSSSADDASLVNASISSSVKATSPVKSTTSITDAKSCEGQNPELLPKTPISPLKTGVSKPIVKSTLSQTVPSKGELSREICLQSQSKDKSTTPGGTGIKPFLERFGERCQEHSKESPARSTPHRTPIITPNTKAIQERLFKQDTSSSTTHLAQQLKQERQKELACLRGRFDKGNIWSAEKGGNSKSKQLETKQETHCQSTPLKKHQGVSKTQSLPVTEKVTENQIPAKNSSTEPKGFTECEMTKSSPLKITLFLEEDKSLKVTSDPKVEQKIEVIREIEMSVDDDDINSSKVINDLFSDVLEEGELDMEKSQEEMDQALAESSEEQEDALNISSMSLLAPLAQTVGVVSPESLVSTPRLELKDTSRSDESPKPGKFQRTRVPRAESGDSLGSEDRDLLYSIDAYRSQRFKETERPSIKQVIVRKEDVTSKLDEKNNAFPCQVNIKQKMQELNNEINMQQTVIYQASQALNCCVDEEHGKGSLEEAEAERLLLIATGKRTLLIDELNKLKNEGPQRKNKASPQSEFMPSKGSVTLSEIRLPLKADFVCSTVQKPDAANYYYLIILKAGAENMVATPLASTSNSLNGDALTFTTTFTLQDVSNDFEINIEVYSLVQKKDPSGLDKKKKTSKSKAITPKRLLTSITTKSNIHSSVMASPGGLSAVRTSNFALVGSYTLSLSSVGNTKFVLDKVPFLSSLEGHIYLKIKCQVNSSVEERGFLTIFEDVSGFGAWHRRWCVLSGNCISYWTYPDDEKRKNPIGRINLANCTSRQIEPANREFCARRNTFELITVRPQREDDRETLVSQCRDTLCVTKNWLSADTKEERDLWMQKLNQVLVDIRLWQPDACYKPIGKP
B3: desmocollin-1; sequence looked up; chain RWAPIPASLMENSLGPFPQHVQQIQSDAAQNYTIFYSISGPGVDKEPFNLFYIEKDTGDIFCTRSIDREKYEQFALYGYATTADGYAPEYPLPLIIKIEDDNDNAPYFEHRVTIFTVPENCRSGTSVGKVTATDLDEPDTLHTRLKYKILQQIPDHPKHFSIHPDTGVITTTTPFLDREKCDTYQLIMEVRDMGGQPFGLFNTGTITISLEDENDNPPSFTETSYVTEVEENRIDVEILRMKVQDQDLPNTPHSKAVYKILQGNENGNFIISTDPNTNEGVLCVVKPLNYEVNRQVILQVGVINEAQFSKAASSQTPTMCTTTVTVKIIDSDEGPECHPPVKVIQSQDGFPAGQELLGYKALDPEISSGEGLRYQKLGDEDNWFEINQHTGDLRTLKVLDRESKFVKNNQYNISVVAVDAVGRSCTGTLVVHLDDYNDHAPQIDKEVTICQNNEDFAVLKPVDPDGPENGPPFQFFLDNSASKNWNIEEKDGKTAILRQRQNLDYNYYSVPIQIKDRHGLVATHMLTVRVCDCSTPSECRMKDKSTRDVRPNVILGRWAILAMVLGSVLLLCILFTCFCVTAKRTVKKCFPEDIAQQNLIVSNTEGPGEEVTEANIRLPMQTSNICDTSMSVGTVGGQGIKTQQSFEMVKGGYTLDSNKGGGHQTLESVKGVGQGDTGRYAYTDWQSFTQPRLGEKVYLCGQDEEHKHCEDYVCSYNYEGKGSLAGSVGCCSDRQEEEGLEFLDHLEPKFRTLAKTCIKK
B4: ABCF2 protein; sequence looked up; chain MPSDLAKKKAAKKKEAAKARQRPRKGHEENGDVVTEPQVAEKNEANGRETTEVDLLTKELEDFEMKKAAARAVTGVLASHPNSTDVHIINLSLTFHGQELLSDTKLELNSGRRYGLIGLNGIGKSMLLSAIGKREVPIPEHIDIYHLTREMPPSDKTPLHCVMEVDTERAMLEKEAERLAHEDAECEKLMELYERLEELDADKAEMRASRILHGLGFTPAMQRKKLKDFSGGWRMRVALARALFIRPFMLLLDEPTNHLDLDACVWLEEELKTFKRILVLVSHSQDFLNGVCTNIIHMHNKKLKYYTGNYDQYVKTRLELEENQMKRFHWEQDQIAHMKNYIARFGHGSAKLARQAQSKEKTLQKMMASGLTERVVSDKTLSFYFPPCGKIPPPVIMVQNVSFKYTKDGPCIYNNLEFGIDLDTRVALVGPNGAGKSTLLKLLTGELLPTDGMIRKHSHVKIGRYHQHLQEQLDLDLSPLEYMMKCYPEIKEKEEMRKIIGRYGLTGKQQVSPIRNLSDGQKCRVCLAWLAWQNPHMLFLDEPTNHLDIETIDALADAINEFEGGMMLVSHDFRLIQQVAQEIWVCEKQTITKWPGDILAYKEHLKSKLVDEEPQLTKRTHNV
B5: CIZ1; sequence looked up; chain MFSQQQQQQLQQQQQQLQQLQQQQLQQQQLQQQQLLQLQQLLQQSPPQAPLPMAVSRGLPPQQPQQPLLNLQGTNSASLLNGSMLQRALLLQQLQGLDQFAMPPATYDTAGLTMPTATLGNLRGYGMASPGLAAPSLTPPQLATPNLQQFFPQATRQSLLGPPPVGVPMNPSQFNLSGRNPQKQARTSSSTTPNRKDSSSQTMPVEDKSDPPEGSEEAAEPRMDTPEDQDLPPCPEDIAKEKRTPAPEPEPCEASELPAKRLRSSEEPTEKEPPGQLQVKAQPQARMTVPKQTQTPDLLPEALEAQVLPRFQPRVLQVQAQVQSQTQPRIPSTDTQVQPKLQKQAQTQTSPEHLVLQQKQVQPQLQQEAEPQKQVQPQVQPQAHSQGPRQVQLQQEAEPLKQVQPQVQPQAHSQPPRQVQLQLQKQVQTQTYPQVHTQAQPSVQPQEHPPAQVSVQPPEQTHEQPHTQPQVSLLAPEQTPVVVHVCGLEMPPDAVEAGGGMEKTLPEPVGTQVSMEEIQNESACGLDVGECENRAREMPGVWGAGGSLKVTILQSSDSRAFSTVPLTPVPRPSDSVSSTPAATSTPSKQALQFFCYICKASCSSQQEFQDHMSEPQHQQRLGEIQHMSQACLLSLLPVPRDVLETEDEEPPPRRWCNTCQLYYMGDLIQHRRTQDHKIAKQSLRPFCTVCNRYFKTPRKFVEHVKSQGHKDKAKELKSLEKEIAGQDEDHFITVDAVGCFEGDEEEEEDDEDEEEIEVEEELCKQVRSRDISREEWKGSETYSPNTAYGVDFLVPVMGYICRICHKFYHSNSGAQLSHCKSLGHFENLQKYKAAKNPSPTTRPVSRRCAINARNALTALFTSSGRPPSQPNTQDKTPSKVTARPSQPPLPRRSTRLKT

Molecule | target or system | test | system | setting | how to read | endpoint | result
KISEYRHYC | HN-4 (HLA-A2+ HPV+) | 111In release | peptide | concentration not given, 16 h, E:T 25:1 IVS 5, together with: peptide-generated T-cell line | – | specific lysis | 7%
colistin | Aspergillus fumigatus | – | pkcA G579R, solid minimal medium | 50 µM, 4 days, 37 °C | relative to: untreated | radial growth ratio | 0.875 and 0.897 and 0.947
insulin human | – | measured: GRIN2A mRNA | uninfected mouse, brain | i.p., dose not given | relative to: PBS | fold change | 1.2
oseltamivir carboxylate | Influenza B virus | cytopathic effect, visual CPE score | MDCK | – | – | EC50 | 2.9 µM
aspterric acid | – | root length | Arabidopsis thaliana Col-0 seeds | 6.25 µg/mL | – | inhibition | 89.3%
LEENITALL | Mamu-A1*02601 MHC class I | peptide binding | peptide, Chinese rhesus macaque | – | – | IC50 | > 20 µM
B1 (DDX21) | – | peptide binding, SILAC pull-down | – | concentration not given | relative to: non-acetylated over acetylated NIT1 peptide | log2 fold change | -0.283
(−)-antroquinonol A | A549 | cytotoxicity, MTS | – | 72 h | – | IC50 | 14.5 ± 1.1 µM
nonaarginine | PorA peptide pore | peptide binding, planar bilayer single-channel recording | – | 0.5 µM, pH 7.4, +20 mV, trans side, 150 mM KCl | – | kon | 1.3e+07 ± 1e+06 M⁻¹ s⁻¹
B2 (anillin) | – | peptide binding, SILAC pull-down | – | concentration not given | relative to: non-acetylated over acetylated NIT1 peptide | log2 fold change | 0.0928
thiostrepton | Enterococcus faecium | – | vancomycin-susceptible | – | – | MIC | 0.06 mg/L
BCLAF1 | – | peptide binding, SILAC pull-down | – | concentration not given | relative to: non-acetylated over acetylated NIT1 peptide | log2 fold change | -0.226
pertussis toxin | – | immunostaining | humanized mouse, SAH model, meningeal F4/80+ macrophages | dose not given | – | p-PKA level | 17.9 MFI
cucurbitacin B | MP41 (BAP1-wild-type uveal melanoma) | cell viability, CellTiter-Glo | – | 72 h | – | IC50 | 0.0484 µM
GWTLNSAGYLLGPRRIDHLLMIKEMPIARGREEAPGA / YAVDNHRSFNDKHGFT-NH2 (C-amide) | – | RT-qPCR, measured: Ccl3 | mouse, DSS-induced colitis, colon | ip, 3 µM, 3% DSS, unit not given | relative to: Gapdh | mRNA level | 0.775 and 0.784 and 0.87 and 0.415 and 0.268
B3 (desmocollin-1) | – | peptide binding, SILAC pull-down | – | concentration not given | relative to: non-acetylated over acetylated NIT1 peptide | log2 fold change | 0.648
lead | glioblastoma | CCK-8 | – | 2.5 µM, 24 h, unit not given | relative to: untreated control | viability | 0.71
B4 (ABCF2 protein) | – | peptide binding, SILAC pull-down | – | concentration not given | relative to: non-acetylated over acetylated NIT1 peptide | log2 fold change | 1.55
QQYNKPLCDL | ASPC1 (HLA-A2− HPV−) | 111In release | peptide | concentration not given, 16 h, E:T 25:1, IVS 5, together with: peptide-generated T-cell line | – | specific lysis | 0.6%
B5 (CIZ1) | – | peptide binding, SILAC pull-down | – | concentration not given | relative to: non-acetylated over acetylated NIT1 peptide | log2 fold change | -0.421
GWTLNSAGYLLGPHAVDNHRSFNDKHGFT-NH2 (C-amide) | – | RT-qPCR, measured: Tnf | peptide, chicken, DSS-induced colitis, ileum | ip, 50 µM, unit not given | relative to: Actb | mRNA level | 5.52 and 5.07 and 4.83 and 5.68 and 7.47 and 4.37 and 9.25
VRRRRVSRFGRGRGY | Vibrio harveyi | bacterial survival, plate count | peptide | 20 µM, 4 h, room temperature | relative to: untreated control | bacterial killing | 92.5%
C19orf53 protein | – | peptide binding, SILAC pull-down | – | concentration not given | relative to: non-acetylated over acetylated NIT1 peptide | log2 fold change | -1.77
